Measurements collected from several papers.
Target: Tyrosine-protein kinase receptor TYRO3 (TYRO3, Homo sapiens, UniProt Q06418)

C=CC(=O)N1CCCC(n2c(=O)c3ncccc3n(Cc3ccc(Oc4ccccc4)cc3)c2=O)C1 (stereo not drawn) — remaining binding (cell-free assay, competition with immobilised ligand; 1 µM): 95%
COc1c(Cl)cccc1Nc1c(-c2ccncc2C#C[C@@]2(C)CCCN2C(=O)/C=C/CN(C)C)[nH]c2c1C(=O)NCC2 — remaining binding (cell-free assay, competition with immobilised ligand; 3 µM): 100%
CNC1C[S+]2CC[S+]3CC[S+](C1)[Ru-4]321([N]=C=S)[n]2c3ccc(OC)cc3c3c4c(c5cc(F)c[n+]1c5c32)C(=O)NC4=O (stereo not drawn) — remaining binding (KinomeScan; 0.1 µM; baseline: untreated): 94%
C=CC(=O)Nc1cccc(-c2cnc3[nH]cc(C(=O)NC(C)(C)C)c3n2)c1 — inhibition (enzyme activity, inhibitor; 0.1 µM): 8%
Cc1ccc(-c2c(/C=C(\C#N)C(=O)NC(C)C)n(CCCO)c3ncnc(N)c23)cc1 — remaining binding (cell-free assay, competition with immobilised ligand; 1 µM): 82%
C=CC(=O)N1Cc2nc(-c3cc(-c4cc(Cl)cnc4Cl)c(F)cc3F)n(-c3ccncn3)c2C1 — inhibition (cell-free assay; 1 µM): 5.3%
Cc1cccc(O[C@H]2CCC[C@@H](C(C)CNCc3ccncc3)C2)c1 (relative stereo) — inhibition (cell-free assay; 10 µM): -6%
COc1cc(Nc2nccc(-c3cnn4nc(OC)ccc34)n2)cc(C(F)(F)F)c1 — remaining binding (binding, competition with immobilised ligand; 1 µM): 100%
Nc1ncc(-c2cc(-c3cnn(CC(F)(F)F)c3)ncc2F)nc1C(=O)NC1CNCC(F)C1 (stereo not drawn) — remaining activity (enzyme activity; 1 µM; baseline: DMSO control): 90.2%
NC(=O)[C@@H](O)C[C@H]1CCc2sc3ncnc(O[C@H]4CC[C@H](N5CCOCC5)CC4)c3c21 — inhibition (enzyme activity, inhibitor; 10 µM): 2%
CNC(=O)C[C@H](Cc1ccc(C#N)cc1)NC(=O)c1cc(-c2ccc(CN[C@H](C)c3ccc(C)cc3)o2)ccc1Cl — activity vs control (enzyme activity, inhibitor; 1 µM): 96%
O=C(Cc1ccc(OCc2ccccc2)cc1)NC1(C(=O)O)CCN(C(=O)c2ccc(-c3cccc(Cl)c3)cc2)CC1 — activity vs control (enzyme activity, inhibitor; 10 µM): 176%
CCN1CCN(Cc2ccc(NC(=O)c3ccc(C)c(NC(=O)c4cncc(-c5cnn(C)c5)c4)c3)cc2C(F)(F)F)CC1 — remaining binding (binding, competition with immobilised ligand; 1 µM): 58%
CCN1CCN(Cc2ccc(C(=O)Nc3ccc(C)c(NCc4cnc5[nH]ccc5c4OC)c3)cc2C(F)(F)F)CC1 — remaining binding (binding, competition with immobilised ligand; 1 µM): 66%
COc1ccc(NC(=O)Nc2ccc3c(c2)C(=O)N(C(C)CO)CC(C)C(CN(C)Cc2ccc4c(c2)OCO4)O3)cc1 (stereo not drawn) — remaining activity (kinase activity, KinaseProfiler; 0.03 µM, species human; baseline: control): 99%

Repeated from above:
Cc1cccc(O[C@H]2CCC[C@@H](C(C)CNCc3ccncc3)C2)c1 (relative stereo) — inhibition (cell-free assay; 10 µM): -6%
Nc1ncc(-c2cc(-c3cnn(CC(F)(F)F)c3)ncc2F)nc1C(=O)NC1CNCC(F)C1 (stereo not drawn) — remaining activity (enzyme activity; 1 µM; baseline: DMSO control): 90.2%
